Results gathered from unrelated publications.
Each line is one published result; not all experiments were run side by side. ± marks the error that the study gave.

Structure (SMILES)	test	system	setting	scale	inhibition [%]
COc1c2c(cc3oc(COC4OC(CO)C(O)C(O)C4O)cc(=O)c13)OC(C(C)(C)O)C2 (stereo not drawn)	ear edema weight	mouse, xylene ear edema	oral, 2 mg/kg	reference: vehicle	22
COC(=O)C1OC(Oc2c(-c3ccccc3)oc3cc(O)c(O)c(O)c3c2=O)C(O)C(O)C1O (stereo not drawn)	paw oedema	mouse, carrageenan-induced paw oedema	oral, 2 mg/kg, 0 h	reference: 10 h	13.8
Cc1cc(NC(=O)[C@H](O)c2cc(F)cc(F)c2)ccc1-c1cnc(N)c(C(=O)NC(C)C)c1	item: phospho-PERK	mouse, pancreas	oral, 100 mg/kg, 12 h		> 80
CC(=O)C12NC(C)(C)CC1(C)C(=O)C1=C2c2c(c3c4n2C(C)(C)CC2=C4C4(CC(C)(C)NC(C)(C4)C2=O)CC3(C)C)C(=O)C(C)(C)N1 (single isomer, unassigned; (-))	acetic acid-induced writhing	mouse	intraperitoneal, 0.04 mg/kg, 0.5 h, writhes counted over 30 min		30.8 ± 2.3
Nc1nc2cc(CC[C@H]3C[C@@H](n4ccc5c(N)ncnc54)[C@H](O)[C@@H]3O)ccc2cc1Br	PRMT5-dependent methylation, item: SmD1/3-Me2	mouse NCI-H1048 xenograft, tumour	10 mg/kg daily, 6 days		93.7
Nc1nc2cnc(C(=O)N3CCOC[C@@H]3c3ccc(C(F)(F)F)cc3)cc2c2c1COC2	item: SDMA	mouse, HCT-116 MTAP wild-type xenograft, tumour	oral, 100 mg/kg once daily, 4 doses, 4 h after last dose	reference: vehicle	> 50
NS(=O)(=O)c1ccc(-n2cc(CNc3ccccc3Cl)c(-c3ccc(OCc4ccccc4)cc3)n2)cc1	analgesic activity	mouse, acetic acid writhing	oral, 20 mg/kg, 30 min before acetic acid	reference: vehicle	73.6
COc1c2c(cc3oc(C)cc(=O)c13)O[C@H](C(C)(C)O[C@@H]1O[C@H](CO)[C@@H](O)[C@H](O)[C@H]1O)C2	ear edema weight	mouse, xylene ear edema	oral, 2 mg/kg	reference: vehicle	9
Fc1ccc(NCc2cn(-c3ccccc3)nc2-c2ccc(OCc3ccccc3)cc2)cc1	acetic acid-induced writhing	mouse	oral, 20 mg/kg, 30 min pretreatment, writhes counted over 20 min, together with: 0.6% acetic acid ip		49.2 ± 1.87
COc1c2c(cc3oc(CO)cc(=O)c13)O[C@H](C(C)(C)O)C2	ear edema weight	mouse, xylene ear edema	oral, 2 mg/kg	reference: vehicle	48
Clc1ccc(NCc2cn(-c3ccccc3)nc2-c2ccc(OCc3ccccc3)cc2)cc1	acetic acid-induced writhing	mouse	oral, 20 mg/kg, 30 min pretreatment, writhes counted over 20 min, together with: 0.6% acetic acid ip		71.9 ± 2.33
C=CC(=O)N1C[C@H](C)N(c2nc(OC[C@@]34CCCN3C[C@H](F)C4)nc3c(F)c(-c4ccc(F)c5sc(N)c(C#N)c45)c(C(F)(F)F)cc23)C[C@H]1C	item: phospho-ERK	mouse MIA PaCa-2 Matrigel plug	30 mg/kg single dose, 24 h		83
NS(=O)(=O)c1ccc(-n2cc(CNc3ccccc3)c(-c3ccc(OCc4ccccc4)cc3)n2)cc1	acetic acid-induced writhing	mouse	oral, 20 mg/kg, 30 min pretreatment, writhes counted over 20 min, together with: 0.6% acetic acid ip		57.3 ± 1.87
CC1=C2C(=O)C3=CC(C)(C)N=C4CCCC2(CC(C)(C)N1)C34O (single isomer, unassigned; (-))	acetic acid-induced writhing	mouse	intraperitoneal, 0.2 mg/kg, 0.5 h, writhes counted over 30 min		65.3 ± 1.5
Fc1ccccc1NCc1cn(-c2ccccc2)nc1-c1ccc(OCc2ccccc2)cc1	acetic acid-induced writhing	mouse	oral, 20 mg/kg, 30 min pretreatment, writhes counted over 20 min, together with: 0.6% acetic acid ip		33.2 ± 2.37
CC(C)c1cnc(-c2cc(Cl)ccc2F)cc1Nc1ccncc1C(=O)NC(CO)CO	item: pSMAD2	4T1 tumour-bearing mouse, tumour	100 mg/kg twice daily, 0 to 8 h average	reference: vehicle	82
Cc1ccc(NCc2cn(-c3ccc(S(N)(=O)=O)cc3)nc2-c2ccc(OCc3ccccc3)cc2)cc1	analgesic activity	mouse, acetic acid writhing	oral, 20 mg/kg, 30 min before acetic acid	reference: vehicle	73.7
CCCCCC(C)(O)/C=C/C=C\C=C\C=C\[C@@H](O)[C@@H](O)CCCC(=O)OC (mixture of isomers)	PMN infiltration	mouse, dorsal air pouch	intrapouch, 10 µg/pouch, 4 h, together with: TNF-α 20 ng		~50

Excerpt of the above:
Structure (SMILES)	test	system	setting	scale	inhibition [%]
C=CC(=O)N1C[C@H](C)N(c2nc(OC[C@@]34CCCN3C[C@H](F)C4)nc3c(F)c(-c4ccc(F)c5sc(N)c(C#N)c45)c(C(F)(F)F)cc23)C[C@H]1C	item: phospho-ERK	mouse MIA PaCa-2 Matrigel plug	30 mg/kg single dose, 24 h		83
